Results gathered from unrelated publications.
Each numbered part is a random draw from the data of one study; scales do not carry over between parts. Positions count from the first letter of the parent shown.

Series 1 — target: CCNB1, cyclin fold, Cln2 fusion (human); technique: yeast growth competition, sequencing; sample: yeast; notes: weak parent motif; baseline: not given; direction: higher = stronger binding
Starting sequence: SAMHD1 docking peptide (human); ASKSRVQLFKDDP
Variant	normalised enrichment score
ASKSRKQLFKDDP [V6K]	0.345
ASKSRVQLFKNDP [D11N]	0.229
ASKSRVQLFKCDP [D11C]	0.366
ASKSRVQLFEDDP [K10E]	0.231
ASKSRVDLFKDDP [Q7D]	-0.268
ASKSRVQLFKQDP [D11Q]	0.265
ASKSRVNLFKDDP [Q7N]	0.437
ASKNRVQLFKDDP [S4N]	0.489
ASKSRPQLFKDDP [V6P]	-0.312
ASKSRVQLFADDP [K10A]	0.227
ASYSRVQLFKDDP [K3Y]	0.181
ADKSRVQLFKDDP [S2D]	0.167
ASKSRVQLEKDDP [F9E]	0.233
ASKSRVQLFKPDP [D11P]	0.441
ASKSMVQLFKDDP [R5M]	-0.0933
ASKSRVQLFVDDP [K10V]	0.203
ASKSVVQLFKDDP [R5V]	0.287
ASKVRVQLFKDDP [S4V]	2.82
ASKSRVQLFMDDP [K10M]	0.264
ASKSRCQLFKDDP [V6C]	0.168
ASKSLVQLFKDDP [R5L]	-0.152
ASKSRVKLFKDDP [Q7K]	0.397
ASKSRVQLFKTDP [D11T]	0.487
ASKSRVQLFFDDP [K10F]	-0.112
ASKSRVQLNKDDP [F9N]	0.202

Series 2 — technique: DHFR PCA, deep sequencing; sample: yeast; together with: (+)-ABA 0.39 µM; baseline: wild-type fitted maximum; direction: higher = stronger binding
Target: ABI1, truncated, D143A, DHFR fusion (Arabidopsis thaliana)
Notes: methotrexate growth selection, single substitutions
Starting sequence: PYL1, truncated, DHFR fusion (Arabidopsis thaliana); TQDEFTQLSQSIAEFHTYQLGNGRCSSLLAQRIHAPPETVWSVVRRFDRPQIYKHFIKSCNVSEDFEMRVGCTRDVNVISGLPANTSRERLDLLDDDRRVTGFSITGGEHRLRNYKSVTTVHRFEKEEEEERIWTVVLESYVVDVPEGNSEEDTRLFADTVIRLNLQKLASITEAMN
Variant	relative binding score [%]
R132N	64.8
R88E	21.7
E67N	26.1
D92T	-10.6
F15D	-7.36
R45I	-1.88
K54F	-21.2
D92W	1.58
P36L	14.8
S104A	-10.3
S27D	7.38
W134V	35.3
F157G	-13.4
R49G	4.32
Y18K	2.65
G81V	1.09
I105P	8.77
G81E	-1.23
I133Y	40.2
E89I	15
K126V	60.9
H34T	4.43

Series 3 — technique: protein-binding microarray; form: double-stranded DNA, one strand shown; sample: in vitro; concentration: not given; direction: higher = stronger binding
Target: TATA-box-binding protein 1 (TBP1, Arabidopsis thaliana, UniProt P28147, residues 1-200, full length assumed)
Notes: k-mer, scored over probes, only values ≥0.25
Residues (chain): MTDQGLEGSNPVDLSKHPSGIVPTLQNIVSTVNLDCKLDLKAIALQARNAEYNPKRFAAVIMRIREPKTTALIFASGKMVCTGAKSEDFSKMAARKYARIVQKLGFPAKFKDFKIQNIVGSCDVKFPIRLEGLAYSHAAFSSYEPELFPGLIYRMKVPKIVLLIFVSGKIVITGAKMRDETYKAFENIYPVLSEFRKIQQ
Oligonucleotide	E-score
AATTATC	0.334
TAAAGTA	0.286
ATTATCC	0.291
GAATTTA	0.347
TACCATA	0.29
AAGATAA	0.32
GTTTATA	0.454
TAAGATA	0.314
TAAAGAA	0.293
AGAATAA	0.309
CCTAATA	0.284
GCTTTAA	0.283
AACAAAA	0.26
ATTAAAA	0.419
ATATTCG	0.312
AGTAATA	0.315
AAATTTC	0.251
TAAACAA	0.263
GAATATC	0.253
ATATCAA	0.323
AATAATG	0.274

Series 4 — technique: RNA Bind-n-Seq; form: RNA; sample: in vitro; concentration: 200 nM; notes: whole 134-nt RNA, ends assumed; together with: 150 mM LiCl; baseline: input library; direction: higher = stronger binding; library: 7-deaza-guanosine replaces G
Target: Ras GTPase-activating protein-binding protein 1, full length (G3BP1, Homo sapiens, UniProt Q13283)
Sequence of UniProt Q13283 (whole entry, looked up): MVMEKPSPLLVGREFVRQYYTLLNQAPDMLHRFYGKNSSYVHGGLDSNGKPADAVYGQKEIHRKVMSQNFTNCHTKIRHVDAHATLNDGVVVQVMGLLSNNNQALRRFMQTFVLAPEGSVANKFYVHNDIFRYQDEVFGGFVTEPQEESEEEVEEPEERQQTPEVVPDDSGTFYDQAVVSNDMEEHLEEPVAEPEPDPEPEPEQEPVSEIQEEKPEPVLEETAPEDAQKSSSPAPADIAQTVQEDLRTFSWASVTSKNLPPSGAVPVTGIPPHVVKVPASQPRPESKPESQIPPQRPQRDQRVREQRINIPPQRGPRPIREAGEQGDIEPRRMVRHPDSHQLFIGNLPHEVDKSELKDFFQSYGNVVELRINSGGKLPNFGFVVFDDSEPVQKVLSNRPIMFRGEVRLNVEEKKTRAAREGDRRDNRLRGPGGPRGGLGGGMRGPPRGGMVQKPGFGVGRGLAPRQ
Shared flanks, not repeated: GGGAGUUCUACAGUCCGACGAUC … UGGAAUUCUCGGGUGUCAAGG
Oligonucleotide	log2 enrichment
CAAGUCCUGUGCUACACAUCGUAUGUACCGAAUCGGGAAAAAAAGGGUGGGUGGGAAAGUAUUAUGUUACGCCGUUCGGAUCUGCACUUC	-0.181
CUGUGCUACACAUCGUAUGUACCGAAUCGGGGAAAAAAAGGAAAAAAAGGGGAAAAAAAGGAAAGUAUUAUGUUACGCCGUUCGGAUCUG	0.0215
AGUCCUGUGCUACACAUCGUAUGUACCGAAUCGGAAAAAGGGAAAAAGGAAAAAGGGGAAAGUAUUAUGUUACGCCGUUCGGAUCUGCAC	-0.549
AGUCCUGUGCUACACAUCGUAUGUACCGAAUCGGUUUGGUUUUUUUGGUUUUUUUGGAAAGUAUUAUGUUACGCCGUUCGGAUCUGCACU	-0.945
AGUCCUGUGCUACACAUCGUAUGUACCGAAUCGGGGUUUUGGGUUUUGGGGUUUUGGAAAGUAUUAUGUUACGCCGUUCGGAUCUGCACU	-0.233
UGUGCUACACAUCGUAUGUACCGAAUCGGGGUUUUUGGGGUUUUUUUGGGGAAAAAAAGGGGAAAGUAUUAUGUUACGCCGUUCGGAUCU	0.629
AAGUCCUGUGCUACACAUCGUAUGUACCGAAUCGGGUUUUUUUGGGUGGGUUUGGGAAAGUAUUAUGUUACGCCGUUCGGAUCUGCACUU	-0.886
UCCUCAAGUCCUGUGCUACACAUCGUAUGUACCGAAUCGGGUGGUGGGUGGAAAGUAUUAUGUUACGCCGUUCGGAUCUGCACUUCCAGC	0.224
UGGGAGGUGGAUUUUGUUUAUUUUUUUUGCUCAUUUCCAGGGGUGGGAAUUUUUUUUUAAUAUGUGUCAUGAAUAAAGUUGUUUUUGAAA	0.54
UCAAGUCCUGUGCUACACAUCGUAUGUACCGAAUCGGCCCCGGCCCCGGCCCCGGAAAGUAUUAUGUUACGCCGUUCGGAUCUGCACUUC	-0.135
AAGUCCUGUGCUACACAUCGUAUGUACCGAAUCGGUUUUUUUGGUGGAAAAAAAGGAAAGUAUUAUGUUACGCCGUUCGGAUCUGCACUU	-1.29

Series 5 — target: CREB3L3, bZIP domain (human); technique: DHFR protein complementation; sample: yeast; baseline: wild-type JUN-FOS pair; direction: higher = stronger binding
Notes: single substitutions, most at no-binding floor
Starting sequence: JUN, bZIP domain (human); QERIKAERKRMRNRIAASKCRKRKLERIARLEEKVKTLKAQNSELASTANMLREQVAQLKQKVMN; partner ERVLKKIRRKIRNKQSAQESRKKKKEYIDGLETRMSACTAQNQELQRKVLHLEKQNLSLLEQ
Variant	binding fitness
M51Q	-1.54 natural log
K39H	-1.45 natural log
A49C	-1.62 natural log
A46S	-1.5 natural log
R53C	-1.24 natural log
M51S	-1.52 natural log
I28F	-1.43 natural log
A46R	-1.39 natural log
R30K	-1.37 natural log
R53M	-1.53 natural log
E44F	-1.32 natural log
N42I	-1.4 natural log
T48Q	-1.35 natural log
A57H	-1.48 natural log
S43A	-1.35 natural log
E33G	-1.46 natural log
A29T	-1.55 natural log
S47P	-1.54 natural log
A46P	-1.52 natural log
R30N	-1.53 natural log
Q58P	-1.15 natural log

Further values, each from its own experiment
Substance	target	assay	system	conditions	how to read	endpoint	value
PhoQ, residues 284 288 289 292 302 303 ASHLAV	PhoP, residues 12 14 15 18 19 TPLRH (Escherichia coli, UniProt P23836)	Sort-seq, refers to: YFP reporter	E. coli	PhoQ-PhoP variant library, together with: 10 µM Mg2+	baseline: high Mg2+ state, higher = stronger signaling	fold induction	0.218

Some of these lines once more (series 3):
Oligonucleotide	E-score
AGTAATA	0.315
TAAAGAA	0.293
AAATTTC	0.251
ATTATCC	0.291
TAAGATA	0.314
CCTAATA	0.284
GAATTTA	0.347
GAATATC	0.253
AATTATC	0.334
AGAATAA	0.309
GTTTATA	0.454
ATATCAA	0.323
TAAACAA	0.263
AAGATAA	0.32
TACCATA	0.29
